Measured values gathered from unrelated publications.
Each line is one published result; not all experiments were run side by side. pIC50: −log10 of the molar value. Values after ≈ are worked out from the molar mass of the structure shown.

CNS(=O)(=O)Nc1nccc(Cc2c(C)c3ccc(Oc4ncccc4F)cc3oc2=O)c1F — pIC50 (MeWo; cell viability; 7 days): 7.98
CCOC(=O)NN — normalised absorbance (hydrazine ligation kinetics, absorbance; concentration not given, 25 s, together with: 2-formylphenylboronic acid): 0.772
Cc1ncsc1-c1ccc(C(C)NC(=O)C2CC(O)CN2C(=O)C(NC(=O)CCCCCCCCCCN2CCCC(Nc3ncc(Cl)c(Nc4ccccc4S(=O)(=O)C(C)C)n3)C2)C(C)(C)C)cc1 (centres unmarked) — log2 fold change (22Rv1; RNA-seq, refers to: TRMT1L mRNA; concentration not given; baseline: DMSO): -1.31
C=CC(=O)N1[C@@H](c2ccc3c(c2)OCO3)c2[nH]c3ccccc3c2C[C@H]1C(=O)N1CCN(C)CC1 — relative co-enrichment (human cyclin E1 wild type-3xFLAG:CDK2; co-IP with TMT proteomics, refers to: NCL; concentration not given, P19338; baseline: wild type DMSO): 101%
C=CC(=O)Nc1cccc(Cn2ncc3cnc(Nc4cnn(CCOC)c4)nc32)c1 — percent of control (NDR1 human; binding, KINOMEscan; 100 nM; lower = stronger binding): 100%
COC1CN([C@H]2CC[C@H]([C@@]3(C)Oc4c(Cl)cc(C(=O)NCc5c(SC)cc(C)[nH]c5=O)c(C)c4O3)CC2)C1 — log2 fold change (RNA-seq, refers to: TRIM2 mouse homolog; mouse, HT-1376 xenograft, whole blood; dose not given; baseline: vehicle): 1.01
CCN(CC)CC(=O)Nc1cccc(-n2cc(-c3ccc4ccc(-c5cn(-c6cccc(NC(=O)CN(CC)CC)c6)nn5)cc4c3)nn2)c1 — fold regulation (RCC4; PCR angiogenesis array, refers to: NOTCH4; 5 x IC50, 4 h, normoxia; baseline: untreated): 1.03
Nc1ncc(-c2cc(-c3cnn(CC(F)(F)F)c3)ncc2F)nc1C(=O)NC1CNCC(F)C1 (centres unmarked) — remaining binding (RIPK1; KINOMEscan; 1 µM; baseline: DMSO control): 100%
Cn1ncc2cc(-c3cncc(Cl)c3N3CCC4(CCNC4=O)CC3)ccc21 — log2 fold change (LS174T; gene expression, microarray, refers to: NFE2L2 mRNA; concentration not given, 4 h; baseline: untreated cells): -1.24
C=C(NC(=O)c1csc(-c2nc3c(cc2O)-c2nc(cs2)C(=O)NC(C(C)O)C(=O)NC(=C(C)OC)c2nc(cs2)C(=O)NC2c4nc(cs4)C(=O)NC(COC(=O)c4c5c6c(cccc6n4O)COC(=O)C(OC4CC(C)(O)C(N(C)C)C(C)O4)C2OC5)c2nc-3cs2)n1)C(N)=O (centres unmarked) — MIC50 (Staphylococcus aureus; broth microdilution; methicillin-resistant isolates): 0.0156 µg/mL (≈ 0.0109 µM)
CN1CCCNC(=O)c2cccc(c2)C(=O)NCCCN(C)CCCNc2cccc3c2C(=O)c2cccc(c2C3=O)NCCC1 — log2 fold change (SAS; RNA-Seq, refers to: PITPNC1 mRNA; 1 µM, 6 h; baseline: untreated cells): 1.89
